{"data": "Experimental data pooled from the literature", "note": "Compare with care: the assays were run in different laboratories. Numbers after ± are the reported error."}
{"Structure (SMILES)": "CCCC[C@H](NC(=O)CCCCCCCNC(=O)c1ccc(NN)nc1)C(=O)N[C@H]1CC(=O)NCCCC[C@@H](C(N)=O)NC(=O)[C@H](Cc2c[nH]c3ccccc23)NC(=O)[C@H](CCCNC(=N)N)NC(=O)[C@@H](Cc2ccccc2)NC(=O)[C@H](Cc2c[nH]cn2)NC1=O [technetium-99m labelled]", "test system": "C57 mouse, B16/F1 melanoma, intestines", "conditions": "intravenous, 0.037 MBq, 0.5 h", "tissue uptake": "2.43 ± 0.31 %ID"}
{"Structure (SMILES)": "N=C(N)NCCC[C@@H]1NC(=O)[C@H](CCCCNC(=O)CC[C@H](NC(=O)CCOCCOCCOCCOCCNC(=O)CC[C@H](NC(=O)CN2CCN(CC(=O)O)CCN(CC(=O)O)CCN(CC(=O)O)CC2)C(=O)NCCOCCOCCOCCOCCC(=O)N[C@@H](CCC(=O)NCCCC[C@@H]2NC(=O)[C@@H](Cc3ccccc3)NC(=O)[C@H](CC(=O)O)NC(=O)CNC(=O)[C@H](CCCNC(=N)N)NC2=O)C(=O)NCCCC[C@@H]2NC(=O)[C@@H](Cc3ccccc3)NC(=O)[C@H](CC(=O)O)NC(=O)CNC(=O)[C@H](CCCNC(=N)N)NC2=O)C(=O)NCCCC[C@@H]2NC(=O)[C@@H](Cc3ccccc3)NC(=O)[C@H](CC(=O)O)NC(=O)CNC(=O)[C@H](CCCNC(=N)N)NC2=O)NC(=O)[C@@H](Cc2ccccc2)NC(=O)[C@H](CC(=O)O)NC(=O)CNC1=O [indium-111 labelled]", "test system": "athymic nude mice, female, U-87 MG glioma xenograft, spleen", "conditions": "intravenous, 3 µCi, 72 h", "tissue uptake": "0.36 ± 0.02 %ID/g"}
{"Structure (SMILES)": "CSCC[C@H](NC(=O)[C@H](CC(C)C)NC(=O)[C@H](Cc1c[nH]cn1)NC(=O)CNC(=O)[C@@H](NC(=O)[C@H](C)NC(=O)[C@H](Cc1c[nH]c2ccccc12)NC(=O)[C@H](CCC(N)=O)NC(=O)CCCCNC(=O)CSCCSCCP(CO)CO)C(C)C)C(N)=O [technetium-99m labelled]", "test system": "female CF-1 mouse, carcass", "conditions": "intravenous, 1 h", "tissue uptake": "10.2 %ID"}
{"Structure (SMILES)": "N=C(N)NCCC[C@@H]1NC(=O)[C@H](CCCCNC(=O)CNC(=O)CNC(=O)CNC(=O)CC[C@H](NC(=O)c2ccc(NN=Cc3ccccc3S(=O)(=O)O)nc2)C(=O)NCC(=O)NCC(=O)NCC(=O)NCCCC[C@@H]2NC(=O)[C@@H](Cc3ccccc3)NC(=O)[C@H](CC(=O)O)NC(=O)CNC(=O)[C@H](CCCNC(=N)N)NC2=O)NC(=O)[C@@H](Cc2ccccc2)NC(=O)[C@H](CC(=O)O)NC(=O)CNC1=O [technetium-99m labelled]", "test system": "athymic nu/nu mouse, female, MDA-MB-435 xenograft, blood", "conditions": "intravenous, 30 min", "tissue uptake": "1.13 ± 0.21 %ID/g"}
{"Structure (SMILES)": "N=C(N)NCCC[C@@H]1NC(=O)[C@H](CCCCNC(=O)CCOCCOCCOCCOCCNC(=O)CC[C@H](NC(=O)CCOCCOCCOCCOCCNC(=O)CC[C@H](NC(=O)CN2CCN(CC(=O)O)CCN(CC(=O)O)CCN(CC(=O)O)CC2)C(=O)NCCOCCOCCOCCOCCC(=O)N[C@@H](CCC(=O)NCCOCCOCCOCCOCCC(=O)NCCCC[C@@H]2NC(=O)[C@@H](Cc3ccccc3)NC(=O)[C@H](CC(=O)O)NC(=O)CNC(=O)[C@H](CCCNC(=N)N)NC2=O)C(=O)NCCOCCOCCOCCOCCC(=O)NCCCC[C@@H]2NC(=O)[C@@H](Cc3ccccc3)NC(=O)[C@H](CC(=O)O)NC(=O)CNC(=O)[C@H](CCCNC(=N)N)NC2=O)C(=O)NCCOCCOCCOCCOCCC(=O)NCCCC[C@@H]2NC(=O)[C@@H](Cc3ccccc3)NC(=O)[C@H](CC(=O)O)NC(=O)CNC(=O)[C@H](CCCNC(=N)N)NC2=O)NC(=O)[C@@H](Cc2ccccc2)NC(=O)[C@H](CC(=O)O)NC(=O)CNC1=O [indium-111 labelled]", "test system": "female athymic nude mice, liver", "conditions": "intravenous, 3 µCi, 0.5 h, U-87 MG glioma xenograft", "tissue uptake": "4.09 ± 0.54 %ID/g"}
{"Structure (SMILES)": "CC(C)C[C@H](NC(=O)[C@H](Cc1ccc(O)cc1)NC(=O)[C@@H](CCCNC(=N)N)NC(=O)[C@@H](CO)NC(=O)[C@H](Cc1ccccc1)NC(=O)[C@H](CC1CCCCC1)NC(=O)[C@H](CC(=O)O)NC(=O)CCC(C(=O)O)N1CCCN2CCN(CCCN(CC(=O)O)CC2)CC1)C(=O)N[C@@H](Cc1c[nH]c2ccccc12)C(=O)N[C@@H](CO)C(=O)O (some centres unmarked) [copper-64 labelled]", "test system": "female NMRI nude mice, tumor", "conditions": "1 h p.i.", "tissue uptake": "3 ± 0.9 %ID/g"}
{"Structure (SMILES)": "CCCC[C@H](NC(=O)COCCOCCNC(=O)c1ccc(NN)nc1)C(=O)N[C@H]1CC(=O)NCCCC[C@@H](C(N)=O)NC(=O)[C@H](Cc2c[nH]c3ccccc23)NC(=O)[C@H](CCCNC(=N)N)NC(=O)[C@@H](Cc2ccccc2)NC(=O)[C@H](Cc2c[nH]cn2)NC1=O [technetium-99m labelled]", "test system": "C57 mouse, female, B16/F1 melanoma, brain", "conditions": "intravenous, 0.037 MBq, 2 h", "tissue uptake": "0.03 ± 0.02 %ID/g"}
{"Structure (SMILES)": "N=C(N)NCCC[C@@H]1NC(=O)[C@H](CCCCNC(=O)CC[C@H](NC(=O)CCOCCOCCOCCOCCNC(=O)CN2CCN(CC(=O)O)CCN(CC(=O)O)CCN(CC(=O)O)CC2)C(=O)NCCCC[C@@H]2NC(=O)[C@@H](Cc3ccccc3)NC(=O)[C@H](CC(=O)O)NC(=O)CNC(=O)[C@H](CCCNC(=N)N)NC2=O)NC(=O)[C@@H](Cc2ccccc2)NC(=O)[C@H](CC(=O)O)NC(=O)CNC1=O [indium-111 labelled]", "test system": "athymic nude mice, female, U-87 MG glioma xenograft, bone", "conditions": "intravenous, 3 µCi, 4 h", "tissue uptake": "0.7 ± 0.18 %ID/g"}
{"Structure (SMILES)": "N=C(N)NCCC[C@@H]1NC(=O)[C@H](CC(=O)NC23CNCCNCC(N)(CNCCNC2)CNCCNC3)NC(=O)[C@@H](Cc2ccccc2)NC(=O)[C@H](CC(=O)O)NC(=O)CNC1=O [copper-64 labelled]", "test system": "Nu/Nu mouse, male, tumour-bearing, liver", "conditions": "intravenous, 10 µCi, 24 h", "tissue uptake": "2.24 ± 0.41 %ID/g"}
{"Structure (SMILES)": "CSCC[C@H](NC(=O)[C@H](CC(C)C)NC(=O)[C@H](Cc1c[nH]cn1)NC(=O)CNC(=O)[C@@H](NC(=O)[C@H](C)NC(=O)[C@H](Cc1c[nH]c2ccccc12)NC(=O)[C@H](CCC(N)=O)NC(=O)CCCCCNC(=O)CNC(=O)CNC(=O)CNC(=O)CSC(C)=O)C(C)C)C(N)=O [technetium-99m labelled]", "test system": "nude mouse, PC-3 xenograft, blood", "conditions": "90 min", "tissue uptake": "0.2 ± 0.06 %ID/g"}
{"Structure (SMILES)": "CCCC[C@H](NC(=O)CNC(=O)CNC(=O)c1ccc(NN)nc1)C(=O)N[C@H]1CC(=O)NCCCC[C@@H](C(N)=O)NC(=O)[C@H](Cc2c[nH]c3ccccc23)NC(=O)[C@H](CCCNC(=N)N)NC(=O)[C@@H](Cc2ccccc2)NC(=O)[C@H](Cc2c[nH]cn2)NC1=O [technetium-99m labelled]", "test system": "C57 mouse, B16/F1 melanoma-bearing, heart", "conditions": "intravenous, 0.5 h", "tissue uptake": "0.84 ± 0.31 %ID/g"}
{"note": "Excerpt of the above:"}
{"Structure (SMILES)": "CCCC[C@H](NC(=O)COCCOCCNC(=O)c1ccc(NN)nc1)C(=O)N[C@H]1CC(=O)NCCCC[C@@H](C(N)=O)NC(=O)[C@H](Cc2c[nH]c3ccccc23)NC(=O)[C@H](CCCNC(=N)N)NC(=O)[C@@H](Cc2ccccc2)NC(=O)[C@H](Cc2c[nH]cn2)NC1=O [technetium-99m labelled]", "test system": "C57 mouse, female, B16/F1 melanoma, brain", "conditions": "intravenous, 0.037 MBq, 2 h", "tissue uptake": "0.03 ± 0.02 %ID/g"}
